Published values pooled from the literature.
PFF0160c: Dihydroorotate dehydrogenase (quinone), mitochondrial (PFF0160c, Plasmodium falciparum, UniProt Q08210)
UniProt Q08210, sequence (whole entry, looked up): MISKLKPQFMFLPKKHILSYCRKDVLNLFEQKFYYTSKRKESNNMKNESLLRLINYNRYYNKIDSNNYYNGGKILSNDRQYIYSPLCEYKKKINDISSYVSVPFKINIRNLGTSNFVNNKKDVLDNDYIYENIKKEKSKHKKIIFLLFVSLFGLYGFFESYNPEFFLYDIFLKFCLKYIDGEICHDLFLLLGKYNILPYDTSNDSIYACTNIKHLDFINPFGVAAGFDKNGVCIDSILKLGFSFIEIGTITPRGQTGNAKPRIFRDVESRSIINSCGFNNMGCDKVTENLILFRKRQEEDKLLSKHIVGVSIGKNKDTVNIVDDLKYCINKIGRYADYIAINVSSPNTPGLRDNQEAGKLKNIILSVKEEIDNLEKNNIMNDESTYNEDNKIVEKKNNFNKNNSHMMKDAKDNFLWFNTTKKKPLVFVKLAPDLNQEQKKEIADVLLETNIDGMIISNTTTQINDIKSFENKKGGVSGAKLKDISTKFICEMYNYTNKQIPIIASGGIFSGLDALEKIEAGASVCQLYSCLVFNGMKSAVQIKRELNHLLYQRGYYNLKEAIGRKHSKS
TMPRSS2: Transmembrane protease serine 2 (TMPRSS2, Homo sapiens, UniProt O15393)
UniProt O15393, sequence (whole entry, looked up): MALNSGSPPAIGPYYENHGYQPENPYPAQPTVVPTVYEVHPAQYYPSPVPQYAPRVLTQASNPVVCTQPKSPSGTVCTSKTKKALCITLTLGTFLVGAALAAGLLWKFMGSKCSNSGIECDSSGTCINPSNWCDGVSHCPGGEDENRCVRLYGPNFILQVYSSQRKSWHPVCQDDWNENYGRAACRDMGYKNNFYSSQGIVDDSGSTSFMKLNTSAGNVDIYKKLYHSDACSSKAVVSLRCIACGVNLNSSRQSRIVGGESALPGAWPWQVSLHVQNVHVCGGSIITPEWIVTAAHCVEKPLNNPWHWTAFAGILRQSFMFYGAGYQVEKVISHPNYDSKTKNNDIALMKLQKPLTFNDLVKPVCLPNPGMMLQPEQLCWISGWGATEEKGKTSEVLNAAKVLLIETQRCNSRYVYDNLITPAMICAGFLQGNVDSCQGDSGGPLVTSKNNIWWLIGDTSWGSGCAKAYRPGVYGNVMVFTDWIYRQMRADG
UniProt P18089, sequence (whole entry, looked up): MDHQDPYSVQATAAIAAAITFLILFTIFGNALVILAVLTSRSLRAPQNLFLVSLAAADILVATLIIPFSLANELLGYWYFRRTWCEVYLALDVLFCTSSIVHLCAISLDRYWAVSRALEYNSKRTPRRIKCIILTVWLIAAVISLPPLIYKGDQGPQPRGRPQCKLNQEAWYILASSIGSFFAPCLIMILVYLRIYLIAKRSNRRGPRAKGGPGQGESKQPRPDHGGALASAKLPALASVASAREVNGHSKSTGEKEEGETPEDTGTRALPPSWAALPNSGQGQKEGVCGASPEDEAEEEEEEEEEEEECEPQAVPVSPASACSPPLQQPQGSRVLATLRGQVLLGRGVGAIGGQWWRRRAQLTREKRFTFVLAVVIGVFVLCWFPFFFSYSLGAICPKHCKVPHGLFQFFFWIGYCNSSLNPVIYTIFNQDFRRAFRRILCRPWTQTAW
UniProt O00444, sequence (whole entry, looked up): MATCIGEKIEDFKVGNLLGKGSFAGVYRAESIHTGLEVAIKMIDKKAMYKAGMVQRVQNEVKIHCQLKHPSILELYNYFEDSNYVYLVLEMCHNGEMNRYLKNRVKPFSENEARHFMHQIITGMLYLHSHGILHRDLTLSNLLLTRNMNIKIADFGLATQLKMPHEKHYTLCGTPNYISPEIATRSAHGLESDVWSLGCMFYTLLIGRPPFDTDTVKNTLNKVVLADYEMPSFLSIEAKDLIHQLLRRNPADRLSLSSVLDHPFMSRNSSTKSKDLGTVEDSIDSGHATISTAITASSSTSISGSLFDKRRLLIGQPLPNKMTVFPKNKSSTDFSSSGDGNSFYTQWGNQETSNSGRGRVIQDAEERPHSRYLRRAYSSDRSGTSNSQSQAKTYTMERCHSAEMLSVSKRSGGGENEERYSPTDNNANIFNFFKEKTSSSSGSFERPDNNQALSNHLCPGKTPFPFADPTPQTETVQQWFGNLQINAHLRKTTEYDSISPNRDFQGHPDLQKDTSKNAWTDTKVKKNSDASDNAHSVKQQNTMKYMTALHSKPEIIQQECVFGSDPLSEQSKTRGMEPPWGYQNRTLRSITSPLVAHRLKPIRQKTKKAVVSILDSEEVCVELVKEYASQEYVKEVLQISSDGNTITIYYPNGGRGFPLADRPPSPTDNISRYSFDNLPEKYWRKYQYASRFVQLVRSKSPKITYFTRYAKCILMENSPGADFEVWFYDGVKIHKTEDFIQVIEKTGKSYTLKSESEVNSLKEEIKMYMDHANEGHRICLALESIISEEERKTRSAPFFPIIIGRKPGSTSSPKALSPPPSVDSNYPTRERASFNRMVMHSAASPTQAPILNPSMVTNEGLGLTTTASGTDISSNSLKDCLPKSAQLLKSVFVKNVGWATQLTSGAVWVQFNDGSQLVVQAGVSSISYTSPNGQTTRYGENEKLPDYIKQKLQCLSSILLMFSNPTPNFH
UniProt P31152, sequence (whole entry, looked up): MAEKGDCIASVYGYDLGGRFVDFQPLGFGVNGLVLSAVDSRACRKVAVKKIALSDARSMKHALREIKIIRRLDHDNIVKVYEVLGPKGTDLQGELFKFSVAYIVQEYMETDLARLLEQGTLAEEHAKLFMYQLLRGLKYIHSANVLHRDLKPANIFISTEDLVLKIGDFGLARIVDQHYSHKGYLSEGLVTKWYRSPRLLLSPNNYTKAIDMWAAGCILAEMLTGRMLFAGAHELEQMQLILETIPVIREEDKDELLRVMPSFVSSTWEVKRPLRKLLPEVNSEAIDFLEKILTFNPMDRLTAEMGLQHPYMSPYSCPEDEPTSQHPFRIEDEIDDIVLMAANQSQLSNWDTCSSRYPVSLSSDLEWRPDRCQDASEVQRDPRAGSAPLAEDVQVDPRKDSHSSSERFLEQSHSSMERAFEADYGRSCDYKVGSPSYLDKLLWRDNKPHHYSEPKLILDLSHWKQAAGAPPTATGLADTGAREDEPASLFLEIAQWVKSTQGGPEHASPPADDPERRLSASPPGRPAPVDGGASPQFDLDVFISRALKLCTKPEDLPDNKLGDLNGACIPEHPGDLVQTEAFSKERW
UniProt P10721, sequence (whole entry, looked up): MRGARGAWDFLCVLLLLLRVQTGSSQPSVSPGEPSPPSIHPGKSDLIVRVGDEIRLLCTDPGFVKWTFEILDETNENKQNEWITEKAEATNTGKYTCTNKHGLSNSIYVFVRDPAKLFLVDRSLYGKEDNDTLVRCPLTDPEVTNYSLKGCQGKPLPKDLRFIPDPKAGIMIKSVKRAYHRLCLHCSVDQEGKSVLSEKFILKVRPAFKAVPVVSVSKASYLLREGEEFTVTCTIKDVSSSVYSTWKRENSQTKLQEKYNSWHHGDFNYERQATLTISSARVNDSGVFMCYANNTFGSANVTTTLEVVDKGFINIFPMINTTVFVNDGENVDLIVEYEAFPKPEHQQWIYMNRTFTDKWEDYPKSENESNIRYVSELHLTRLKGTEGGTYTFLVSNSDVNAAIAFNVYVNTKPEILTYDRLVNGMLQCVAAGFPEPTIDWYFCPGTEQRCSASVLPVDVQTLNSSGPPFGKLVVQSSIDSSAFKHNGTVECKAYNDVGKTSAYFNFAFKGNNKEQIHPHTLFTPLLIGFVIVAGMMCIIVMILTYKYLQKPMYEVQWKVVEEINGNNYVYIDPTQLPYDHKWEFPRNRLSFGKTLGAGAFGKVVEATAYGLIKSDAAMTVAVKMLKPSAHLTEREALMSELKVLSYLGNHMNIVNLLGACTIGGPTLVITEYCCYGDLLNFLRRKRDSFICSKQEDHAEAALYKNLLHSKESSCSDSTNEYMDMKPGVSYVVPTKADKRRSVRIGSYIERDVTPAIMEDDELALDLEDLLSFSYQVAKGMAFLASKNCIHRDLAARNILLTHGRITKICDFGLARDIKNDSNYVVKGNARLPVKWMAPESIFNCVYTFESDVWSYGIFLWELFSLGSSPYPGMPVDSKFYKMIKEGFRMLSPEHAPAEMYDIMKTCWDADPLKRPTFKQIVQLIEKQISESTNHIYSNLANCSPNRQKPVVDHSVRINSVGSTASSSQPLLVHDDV
UniProt P45985, sequence (whole entry, looked up): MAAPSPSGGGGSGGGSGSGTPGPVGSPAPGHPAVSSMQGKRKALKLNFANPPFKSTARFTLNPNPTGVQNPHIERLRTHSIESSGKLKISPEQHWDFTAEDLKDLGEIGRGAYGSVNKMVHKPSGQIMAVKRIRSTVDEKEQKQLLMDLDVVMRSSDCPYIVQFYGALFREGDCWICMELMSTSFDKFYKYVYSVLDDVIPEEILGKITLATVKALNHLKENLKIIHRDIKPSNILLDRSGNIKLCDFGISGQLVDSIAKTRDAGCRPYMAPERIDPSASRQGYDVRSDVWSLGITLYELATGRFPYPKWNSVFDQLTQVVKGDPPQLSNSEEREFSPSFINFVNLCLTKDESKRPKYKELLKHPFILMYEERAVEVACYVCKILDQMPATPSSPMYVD
UniProt P25025, sequence (whole entry, looked up): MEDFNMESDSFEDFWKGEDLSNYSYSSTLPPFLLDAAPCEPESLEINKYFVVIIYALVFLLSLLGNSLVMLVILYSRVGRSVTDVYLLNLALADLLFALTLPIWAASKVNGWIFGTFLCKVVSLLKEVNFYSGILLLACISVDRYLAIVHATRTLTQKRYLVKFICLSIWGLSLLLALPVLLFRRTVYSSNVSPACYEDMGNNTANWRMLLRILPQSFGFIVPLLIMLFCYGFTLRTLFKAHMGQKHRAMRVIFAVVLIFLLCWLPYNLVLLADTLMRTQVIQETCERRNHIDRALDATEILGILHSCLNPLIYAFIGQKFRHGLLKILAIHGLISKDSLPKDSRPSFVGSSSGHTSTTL

For `CC(C)CC(=O)OC[C@H]1O[C@@](C#N)(c2ccc3c(N)ncnn23)[C@H](O)[C@@H]1O`, the inhibition was -2% (CXCR2 (Homo sapiens, UniProt P25025); cell-free assay; 20 µM).
`CCn1cc(C(=O)NC2CCNCC2)n(Cc2ccccc2)c1=O` has an IC50 of greater than 10000 nM (PFF0160c; enzyme activity, inhibitor, absorbance).
`[2H]c1c([2H])c([C@]2([2H])CCCN2C(=O)C(C)(C)Oc2ccc3cn[nH]c3c2)c([2H])c([2H])c1C([2H])([2H])[2H]` has a remaining binding of 100% (MAP2K4 (Homo sapiens, UniProt P45985); binding, competition with immobilised ligand; 1 µM).
`c1ccc2c(c1)sc1ccccc12` has a remaining activity of 86.3% (Procathepsin L (CTSL, Homo sapiens, UniProt P07711); enzyme activity, inhibitor; 100 µM).
With `COC(=O)c1cc(-c2cccc(NC(=S)Nc3ccc(Cl)cc3)c2)on1` the MIC was greater than 64 µg/mL (Klebsiella pneumoniae; microbial growth, broth dilution; BAA1705).
With `CC(Oc1ccc(C(=O)c2ccc(F)cc2)cc1)C(=O)N1CCc2ccccc21` (stereo not drawn) the IC50 was 2540 nM (PFF0160c; enzyme activity, inhibitor, absorbance).
`Nc1ncc(-c2nc(N3CCOCC3)nc(N3CCOCC3)n2)c(C(F)F)n1` gave a remaining binding of 70% (Tyrosine-protein kinase ABL1, non-phosphorylated (ABL1, Homo sapiens, UniProt P00519, Q252H); binding, competition with immobilised ligand; 10 µM).
With `COC(=O)c1cc(-c2cccc(NC(=O)Nc3ccc(Cl)c(Cl)c3)c2)on1` the MIC was greater than 64 µg/mL (Klebsiella pneumoniae; microbial growth, broth dilution; BAA1705).
Under “activity vs control”, `CN(C)[C@@H](CCC(N)=O)C(=O)N[C@@H](Cc1ccccc1)C(=O)N[C@H](CCCNC(=N)N)C(=O)c1nc2ccccc2s1` is recorded as 59% (TMPRSS2; enzyme activity, inhibitor; 1 nM).
For `COc1ncccc1-c1cnn2ccc(N3CCN(C(=O)OC(C)C)CC3)nc12`, the remaining binding was 100% (MAPK4 (Homo sapiens, UniProt P31152); binding, competition with immobilised ligand; 1 µM).
For `CCC(C)[C@H](N)C(=O)N[C@@H](CCC(N)=O)C(=O)N[C@@H](C)C(=O)N[C@H](CCCNC(=N)N)C(=O)c1nc2ccccc2s1` (stereo partly drawn), “activity vs control” read 69% (TMPRSS2; enzyme activity, inhibitor; 1 nM).
The inhibition of `C#Cc1n[nH]c2c(-c3cn([C@@H](C)c4ccccn4)c(=O)[nH]c3=O)cc(F)cc12` is reported as -0.4% (KIT (Homo sapiens, UniProt P10721); enzyme activity, inhibitor; 0.1 µM).
With `Cc1nn(C)cc1-c1nc2c(N3CCN(Cc4ccc(Cl)cc4)CC3)c(Cl)cnc2[nH]1` the remaining binding was 84% (PLK4 (Homo sapiens, UniProt O00444); binding, competition with immobilised ligand; 1 µM).
`N=C(N)NCCC[C@H](NC(=O)[C@H](Cc1ccc(O)cc1)NC(=O)[C@H](CS)NC(=O)[C@@H](N)Cc1c[nH]c2ccccc12)C(=O)c1nc2ccccc2s1`: “activity vs control” 96% (TMPRSS2; enzyme activity, inhibitor; 1 nM).
`c1cncc([C@@H]2CCCN2)c1` gave an inhibition of -17.9% (ADRA2B (Homo sapiens, UniProt P18089); ligand displacement; 50 µM).
